Measurements pooled from the literature.
Protocols differ between the studies behind these lines.
Organism: Pseudomonas aeruginosa

Molecule	assay	test system	setting	MIC
COc1cccc(OC)c1C(=O)N[C@@H]1C(=O)N2[C@@H]1SC(C)(C)[C@@H]2C(=O)O	microbial growth, broth dilution	27853		> 128 µM
COc1cc(C(=O)Nc2ccc(C(=O)O)c(O)c2)ccc1NC(=O)c1ccc(NC(=O)[C@H](Cc2c[nH]nn2)NC(=O)c2ccc(NC(=O)/C(C)=C/c3ccc(O)cc3)cc2)cc1	broth microdilution	ciprofloxacin-sensitive		32 µg/mL
CC1(C)[C@H](NC(=O)/C(=N\OCC(=O)N2CCC[C@@H]2C(=O)O)c2nsc(N)n2)C(=O)N1OS(=O)(=O)O	agar dilution	ATCC 27853		> 64 µg/mL
COc1c(NC(=O)c2ccc(NC(=O)c3ccc(NC(=O)[C@H](Cc4c[nH]nn4)NC(=O)c4ccc(NC(=O)/C(C)=C/c5ccc(O)cc5)cc4)cc3)cc2)ccc(C(=O)O)c1O	broth microdilution	ciprofloxacin-resistant		32 µg/mL
CCCCCCCCCCCC[N+](C)(C)CCCCOc1cc(OCCCC[N+](C)(C)CCCCCCCCCCCC)cc(OCCCC[N+](C)(C)CCCCCCCCCCCC)c1.[Br-].[Br-].[Br-]		PAO1		16 µM
N=C(N)NCCC[C@@H]1NC(=O)[C@H](CCCNC(=N)N)NC(=O)[C@@H](CCCNC(=N)N)NC(=O)[C@H](C(c2ccccc2)c2ccccc2)NC(=O)[C@H](C(c2ccccc2)c2ccccc2)NC(=O)[C@H](C(c2ccccc2)c2ccccc2)NC(=O)[C@H](CCCNC(=N)N)NC1=O		ATCC 27853		32 µg/mL
CCn1cc(C(=O)O)c(=O)c2cc(F)c(N3CCNCC3)cc21	broth microdilution	phenazine non-producing		0.06 µg/mL
CC[C@H]1OC(=O)[C@H](C)[C@@H](OC(=O)Cc2cccc3ccccc23)[C@H](C)[C@@H](O[C@@H]2O[C@H](C)C[C@H](N(C)C)[C@H]2O)[C@](C)(OC)C[C@@H](C)C(=O)[C@H](C)[C@@H](O)[C@]1(C)O		PAO397, five efflux pumps deleted		> 32 µg/mL
O=CCNCCOn1c(=O)n(OCCNCCO)c(=O)n(OCCNCCOn2c(=O)n(OCCNCCO)c(=O)n(OCCNCCO)c2=O)c1=O	microbial growth, broth dilution			2 µg/mL
CN[C@H](CC(C)C)C(=O)N[C@H]1C(=O)N[C@@H](CC(N)=O)C(=O)N[C@H]2C(=O)N[C@H]3C(=O)N[C@H](C(=O)N[C@H](C(=O)O)c4cc(O)cc(O)c4-c4cc3ccc4O)[C@H](O)c3ccc(c(Cl)c3)Oc3cc2cc(c3O[C@@H]2O[C@H](CO)[C@@H](O)[C@H](O)[C@H]2O[C@H]2C[C@](C)(NCc3ccc(OCc4cn(CCCCC(=O)N[C@H](C(=O)N[C@@H](CCN)C(=O)N[C@H]5CCNC(=O)[C@H]([C@@H](C)O)NC(=O)[C@H](CCN)NC(=O)[C@H](CCN)NC(=O)[C@H](CC(C)C)NC(=O)[C@@H](CC(C)C)NC(=O)[C@H](CCN)NC5=O)[C@@H](C)O)nn4)c(OC)c3)[C@H](O)[C@H](C)O2)Oc2ccc(cc2Cl)[C@H]1O	broth microdilution	ATCC 10145, cation-adjusted Mueller-Hinton broth	18 to 20 h, 37 °C, 0.002% polysorbate 80	64 µg/mL
C=CCO/N=C(\C(=O)N[C@@H]1C(=O)N(OS(=O)(=O)O)C1(C)C)c1csc(N)n1	agar dilution	PAO1		16 µg/mL
COc1c(NC(=O)c2ccc(NC(=O)c3ccc(NC(=O)[C@H](Cc4c[nH]nn4)NC(=O)c4ccc(NC(=O)/C(C)=C/c5ccc(O)cc5)cc4)cc3)cc2O)ccc(C(=O)O)c1O	broth microdilution	ciprofloxacin-sensitive		32 µg/mL
CC[C@H]1OC(=O)[C@H](C)[C@@H](O[C@H]2C[C@@](C)(OC)[C@@H](O)[C@H](C)O2)[C@H](C)[C@@H](O[C@@H]2O[C@H](C)C[C@H](N(C)C)[C@H]2O)[C@](C)(O)C[C@@H](C)CN(C)[C@H](C)[C@@H](O)[C@]1(C)O	microbial growth, broth dilution	PAO1		32 µg/mL
CN[C@H](CC(C)C)C(=O)N[C@H]1C(=O)N[C@@H](CC(N)=O)C(=O)N[C@H]2C(=O)N[C@H]3C(=O)N[C@H](C(=O)N[C@H](C(=O)NCC(N)=O)c4cc(O)cc(O)c4-c4cc3ccc4O)[C@H](O)c3ccc(c(Cl)c3)Oc3cc2cc(c3O[C@@H]2O[C@H](CO)[C@@H](O)[C@H](O)[C@H]2O[C@H]2C[C@](C)(NCc3ccc(OCc4cn(CC(=O)N[C@H](C(=O)N[C@@H](CCN)C(=O)N[C@H]5CCNC(=O)[C@H]([C@@H](C)O)NC(=O)[C@H](CCN)NC(=O)[C@H](CCN)NC(=O)[C@H](CC(C)C)NC(=O)[C@@H](CC(C)C)NC(=O)[C@H](CCN)NC5=O)[C@@H](C)O)nn4)c(OC)c3)[C@H](O)[C@H](C)O2)Oc2ccc(cc2Cl)[C@H]1O	broth microdilution	ATCC 10145, cation-adjusted Mueller-Hinton broth	18 to 20 h, 37 °C, 0.002% polysorbate 80	32 µg/mL
CC1(C)[C@H](NC(=O)/C(=N\OC2(C(=O)O)CC2)c2nsc(N)n2)C(=O)N1OS(=O)(=O)O	agar dilution	ATCC 27853		16 µg/mL
CC[C@H]1OC(=O)[C@H](C)[C@@H](OC(=O)Cc2c(F)cccc2F)[C@H](C)[C@@H](O[C@@H]2O[C@H](C)C[C@H](N(C)C)[C@H]2O)[C@](C)(OC)C[C@@H](C)C(=O)[C@H](C)[C@@H](O)[C@]1(C)O	microbial growth	ATCC27853		> 32 µg/mL
COc1ccc2ccc(O)c(/C=N/[C@H]3CCCC[C@H]3/N=C/c3c(O)cccc3OC)c2c1	microbial growth, broth dilution			> 40 µM
COc1c(C)c(O)c(C(=O)C=Cc2ccccc2)c(OC)c1C	microbial growth, broth dilution	ATCC27853		5000 µg/mL

Molecule	assay	test system	setting	MIC
CC(C)C[C@@H]1NC(=O)[C@@H](CC(C)C)NC(=O)[C@H](CCN)NC(=O)[C@@H](NC(=O)[C@H](CCN)NC(=O)[C@@H](N)[C@@H](C)O)CCNC(=O)[C@H]([C@@H](C)O)NC(=O)[C@H](CCN)NC(=O)[C@H](CCN)NC1=O	broth microdilution	ATCC 27736, cation-adjusted Mueller-Hinton broth		> 138 µM
C/C(=C\c1ccc(O)cc1)C(=O)Nc1ccc(C(=O)N[C@@H](Cc2c[nH]nn2)C(=O)Nc2ccc(C(=O)Nc3ccc(C(=O)Nc4ccc(C(=O)O)cc4)c(O)c3)cc2)cc1	broth microdilution	ciprofloxacin-sensitive		32 µg/mL
CCCCCCCCCC[N+](C)(C)CCCCOc1cc(OCCCC[N+](C)(C)CCCCCCCCCC)cc(OCCCC[N+](C)(C)CCCCCCCCCC)c1.[Br-].[Br-].[Br-]		PAO1		2 µM
CC[C@H]1OC(=O)[C@H](C)[C@@H](OC(=O)Cc2ccc(Cl)cc2)[C@H](C)[C@@H](O[C@@H]2O[C@H](C)C[C@H](N(C)C)[C@H]2O)[C@](C)(OC)C[C@@H](C)C(=O)[C@H](C)[C@@H](O)[C@]1(C)O	microbial growth	ATCC27853		> 32 µg/mL
COc1cc(C(=O)O)ccc1NC(=O)c1ccc(NC(=O)c2ccc(NC(=O)[C@H](Cc3c[nH]nn3)NC(=O)c3ccc(NC(=O)/C(C)=C/c4ccc(O)cc4)cc3)cc2)c(OC)c1	broth microdilution	ciprofloxacin-sensitive		32 µg/mL
COc1ccc(/C=N/[C@@H]2CCCC[C@@H]2/N=C/c2c(O)ccc3ccc(OC)cc23)c(O)c1	microbial growth, broth dilution		clinical isolate	> 40 µM
Cc1cccc(C(=O)Oc2cccccc2=O)c1	broth microdilution	ATCC 27853, CAMHB	16 to 24 h, ≥80% growth inhibition	> 71.4 µM
CC[C@H]1OC(=O)[C@H](C)[C@@H](OC(=O)Cc2ccccc2Cl)[C@H](C)[C@@H](O[C@@H]2O[C@H](C)C[C@H](N(C)C)[C@H]2O)[C@](C)(OC)C[C@@H](C)C(=O)[C@H](C)[C@@H](O)[C@]1(C)O	microbial growth	ATCC27853		> 32 µg/mL
C=CCOc1c(C)c(OC)c(C(=O)/C=C/c2ccccc2)c(OCC=C)c1C	microbial growth, broth dilution	ATCC27853		5000 µg/mL
CCCCCCCCCCn1cc[n+](CCCCOc2cc(OCCCC[n+]3ccn(CCCCCCCCCC)c3)cc(OCCCC[n+]3ccn(CCCCCCCCCC)c3)c2)c1.[Br-].[Br-].[Br-]		PAO1		2 µM
COc1ccc2ccc(O)c(/C=N/[C@H]3CCCC[C@H]3/N=C/c3ccc(F)cc3O)c2c1	microbial growth, broth dilution		clinical isolate	> 40 µM
CC1(C)C(NC(=O)C(=NOCC(=O)N2CC3CCCC3C2C(=O)O)c2csc(N)n2)C(=O)N1OS(=O)(=O)O (stereo not drawn)	agar dilution	ATCC 27853		> 64 µg/mL
COc1ccc2ccc(O)c(/C=N/[C@H]3CCCC[C@H]3/N=C/c3cc(C(C)(C)C)ccc3O)c2c1	microbial growth, broth dilution		clinical isolate	> 40 µM
CC[C@H]1OC(=O)[C@H](C)[C@@H](OC(=O)Cc2ccc(C(F)(F)F)cc2)[C@H](C)[C@@H](O[C@@H]2O[C@H](C)C[C@H](N(C)C)[C@H]2O)[C@](C)(OC)C[C@@H](C)C(=O)[C@H](C)[C@@H](O)[C@]1(C)O		PAO397, five efflux pumps deleted		> 32 µg/mL
CC[C@H](C)[C@H](NC(=O)[C@@H](CCCNC(=N)N)NC(=O)[C@H](CCCNC(=N)N)NC(=O)[C@@H]1CCCN1C(=O)[C@@H]1CCCN1C(=O)[C@H](CCCNC(=N)N)NC(=O)[C@@H]1CCCN1C(=O)[C@H](CCCNC(=N)N)NC(=O)[C@@H]1CCCN1C(=O)[C@H](CCCNC(=N)N)NC(=O)[C@H](Cc1ccc(O)cc1)NC(=O)[C@@H]1CCCN1C(=O)[C@@H]1CCCN1C(=O)[C@H](CCCCN)NC(=O)[C@H](CC(=O)O)NC(=O)[C@@H](N)C(C)C)C(=O)N[C@@H](Cc1ccc(O)cc1)C(=O)N[C@@H](CC(N)=O)C(=O)N[C@H](CCCNC(=N)N)C(N)=O	broth microdilution	DSM 1117	18 h, 37 °C, 25% MHB2	32 µg/mL
polymyxin B	broth microdilution	ΔmexAB-oprM		1 µg/mL
CC1(C)[C@H](NC(=O)/C(=N\OCC(=O)N2CCC(C(=O)O)C2)c2nsc(N)n2)C(=O)N1OS(=O)(=O)O (stereo partly drawn)	agar dilution	PAO1		> 64 µg/mL
COc1cc(Cc2cnc(N)nc2N)cc(OC)c1OC.O=c1[nH]cc(F)c(=O)[nH]1	broth microdilution		24 h	8 µg/mL

Some of these lines once more:
Molecule	assay	test system	setting	MIC
CC[C@H]1OC(=O)[C@H](C)[C@@H](OC(=O)Cc2cccc3ccccc23)[C@H](C)[C@@H](O[C@@H]2O[C@H](C)C[C@H](N(C)C)[C@H]2O)[C@](C)(OC)C[C@@H](C)C(=O)[C@H](C)[C@@H](O)[C@]1(C)O		PAO397, five efflux pumps deleted		> 32 µg/mL
O=CCNCCOn1c(=O)n(OCCNCCO)c(=O)n(OCCNCCOn2c(=O)n(OCCNCCO)c(=O)n(OCCNCCO)c2=O)c1=O	microbial growth, broth dilution			2 µg/mL
CN[C@H](CC(C)C)C(=O)N[C@H]1C(=O)N[C@@H](CC(N)=O)C(=O)N[C@H]2C(=O)N[C@H]3C(=O)N[C@H](C(=O)N[C@H](C(=O)O)c4cc(O)cc(O)c4-c4cc3ccc4O)[C@H](O)c3ccc(c(Cl)c3)Oc3cc2cc(c3O[C@@H]2O[C@H](CO)[C@@H](O)[C@H](O)[C@H]2O[C@H]2C[C@](C)(NCc3ccc(OCc4cn(CCCCC(=O)N[C@H](C(=O)N[C@@H](CCN)C(=O)N[C@H]5CCNC(=O)[C@H]([C@@H](C)O)NC(=O)[C@H](CCN)NC(=O)[C@H](CCN)NC(=O)[C@H](CC(C)C)NC(=O)[C@@H](CC(C)C)NC(=O)[C@H](CCN)NC5=O)[C@@H](C)O)nn4)c(OC)c3)[C@H](O)[C@H](C)O2)Oc2ccc(cc2Cl)[C@H]1O	broth microdilution	ATCC 10145, cation-adjusted Mueller-Hinton broth	18 to 20 h, 37 °C, 0.002% polysorbate 80	64 µg/mL
C=CCO/N=C(\C(=O)N[C@@H]1C(=O)N(OS(=O)(=O)O)C1(C)C)c1csc(N)n1	agar dilution	PAO1		16 µg/mL
